Published values pooled from the literature.
Protocols differ between the studies behind these lines. Values joined by “and” are separate records of one study, mostly repeats; a detail may differ. ± gives the spread as reported.
rep main protease: Replicase polyprotein 1ab, main protease (rep, Severe acute respiratory syndrome coronavirus 2, UniProt P0DTD1)
Spike glycoprotein: Spike glycoprotein (Severe acute respiratory syndrome coronavirus 2, UniProt P0DTC2)
Sequence of UniProt Q7BQ98 (whole entry, looked up): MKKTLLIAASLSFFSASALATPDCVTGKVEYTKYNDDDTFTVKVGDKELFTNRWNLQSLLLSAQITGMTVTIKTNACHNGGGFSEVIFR
Sequence of UniProt P78348 (whole entry, looked up): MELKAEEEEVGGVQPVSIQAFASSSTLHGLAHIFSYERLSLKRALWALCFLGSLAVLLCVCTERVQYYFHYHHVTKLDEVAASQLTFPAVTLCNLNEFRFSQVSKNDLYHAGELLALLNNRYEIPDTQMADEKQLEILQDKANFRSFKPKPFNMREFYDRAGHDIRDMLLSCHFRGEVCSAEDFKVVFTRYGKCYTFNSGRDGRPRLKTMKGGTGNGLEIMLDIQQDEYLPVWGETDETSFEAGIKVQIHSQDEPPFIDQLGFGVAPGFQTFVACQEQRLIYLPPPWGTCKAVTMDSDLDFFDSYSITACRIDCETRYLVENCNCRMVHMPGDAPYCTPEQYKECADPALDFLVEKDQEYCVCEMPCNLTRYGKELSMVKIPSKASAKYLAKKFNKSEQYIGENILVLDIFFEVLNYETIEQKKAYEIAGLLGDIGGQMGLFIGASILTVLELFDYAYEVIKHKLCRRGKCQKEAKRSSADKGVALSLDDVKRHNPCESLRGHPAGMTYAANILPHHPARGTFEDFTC

| SMILES | tested on | test | system | setting | scale | quantity | result |
| --- | --- | --- | --- | --- | --- | --- | --- |
| O=C(N[C@@H]1CCCC[C@]12CCCN(C(=O)c1cc[nH]c(=O)c1)C2)c1cncc2ccccc12 | rep main protease | enzyme activity, inhibitor |  | 5 µM, mean of runs |  | inhibition | 11.7% |
| Cc1nc(-c2ccccc2F)c(C(=O)NC(Cc2ccccc2)C(=O)C(N)=O)o1 (stereo not drawn) | rep main protease | reporter gene (Gaussia luciferase), inhibitor |  | 20 µM |  | inhibition | 0.989% |
| C[C@@H]1O[C@@H](O[C@H]2C(=O)c3c(O)cc(O)cc3O[C@@H]2c2ccc(O)c(O)c2)[C@H](O)[C@H](O)[C@H]1O | Spike glycoprotein | binding, BLI |  |  |  | kon | 275 M⁻¹ s⁻¹ |
| C(#Cc1nc2ncccc2nc1OCCN1CCCC1)c1ccccc1 | rep main protease | viral replication, Gluc reporter | SARS-CoV-2 | 20 µM |  | inhibition | -6.07% |
| O=C(/C=C/c1ccc(O)c(O)c1)OC[C@H]1O[C@@H](OCCc2ccc(O)c(O)c2)[C@H](O)[C@@H](O)[C@@H]1O | Spike glycoprotein | binding, BLI |  |  |  | koff | 0.00353 s⁻¹ |
| CC[C@H](C)[C@H](NC(=O)[C@@H]1CCCN1C(=O)[C@H](C)NC(=O)[C@@H]1CSSC[C@@H]2NC(=O)[C@H](CC(=O)O)NC(=O)[C@H](CCCNC(=N)N)NC(=O)[C@H](CCC(=O)O)NC(=O)[C@H](CCCNC(=N)N)NC(=O)CNC(=O)[C@H](CC(=O)O)NC(=O)[C@@H]3CSSC[C@H](NC(=O)[C@H](CCC(=O)O)NC(=O)[C@H](CC(C)C)NC(=O)CNC(=O)[C@H](C)NC(=O)[C@H](CSSC[C@H](NC(=O)[C@H](Cc4ccccc4)NC(=O)[C@@H](N)CO)C(=O)N[C@@H](CC(C)C)C(=O)N[C@@H](C(C)C)C(=O)N[C@@H](CCCCN)C(=O)N[C@@H](Cc4c[nH]c5ccccc45)C(=O)N[C@@H](CCCCN)C(=O)N[C@@H](CCC(N)=O)C(=O)N3)NC2=O)C(=O)N[C@@H](Cc2c[nH]c3ccccc23)C(=O)N[C@@H](CCCCN)C(=O)N[C@@H](CCCNC(=N)N)C(=O)N[C@@H](CO)C(=O)NCC(=O)N[C@@H](CC(N)=O)C(=O)N[C@@H](CCCCN)C(=O)N[C@@H](CO)C(=O)N[C@@H](CO)C(=O)N[C@@H](C(C)C)C(=O)N1)C(=O)N[C@H](C(=O)O)[C@@H](C)O | Acid-sensing ion channel 1 (ASIC1, Homo sapiens, UniProt P78348) | ion current, outside-out patch clamp | HEK-293T | 100 nM | reference: same patch before toxin | rise time slowing | 18 ± 6 fold |
| CC[C@H](C)[C@H](NC(=O)[C@H](CC(C)C)NC(=O)[C@H](Cc1c[nH]c2ccccc12)NC(=O)[C@H](CCC(N)=O)NC(=O)[C@@H](NC(=O)[C@H](Cc1ccccc1)NC(=O)[C@H](C)NC(=O)[C@H](CCCCNC(=O)COCCOCCNC(=O)COCCOCCNC(=O)CC[C@H](NC(=O)CCCCCCCCCCCCCCCCCCC(=O)O)C(=O)O)NC(=O)[C@H](CCC(N)=O)NC(=O)[C@H](C)NC(=O)[C@@H](NC(=O)[C@H](CCCCN)NC(=O)[C@H](CC(=O)O)NC(=O)[C@H](CC(C)C)NC(=O)C(C)(C)NC(=O)[C@@H](NC(=O)[C@H](CO)NC(=O)[C@H](Cc1ccc(O)cc1)NC(=O)[C@H](CC(=O)O)NC(=O)[C@H](CO)NC(=O)[C@@H](NC(=O)[C@H](Cc1ccccc1)NC(=O)[C@@H](NC(=O)CNC(=O)[C@H](CCC(=O)O)NC(=O)C(C)(C)NC(=O)[C@@H](N)Cc1ccc(O)cc1)[C@@H](C)O)[C@@H](C)O)[C@@H](C)CC)[C@@H](C)CC)C(C)C)C(=O)N[C@@H](C)C(=O)NCC(=O)NCC(=O)N1CCC[C@H]1C(=O)N[C@@H](CO)C(=O)N[C@@H](CO)C(=O)NCC(=O)N[C@@H](C)C(=O)N1CCC[C@H]1C(=O)N1CCC[C@H]1C(=O)N1CCC[C@H]1C(=O)N[C@@H](CO)C(N)=O |  |  | healthy subjects | all MAD doses |  | subjects with vessel puncture bruise | 0% |
| Cn1cnc(Cn2c(=O)[nH]/c(=N\c3cc4cn(C)nc4cc3Cl)n(Cc3cc(F)c(F)cc3F)c2=O)n1 |  |  | human, normal renal function | oral, 375 mg, single dose, geometric mean |  | renal clearance | 0.935 mL/min |
| O=C(NC[C@H](NC(=O)c1cncc2sccc12)c1ccc2ccccc2c1)c1cncs1 | rep main protease | enzyme activity, inhibitor |  | 5 µM, run 1 |  | inhibition | 14.4% |
| CCc1c(C(=O)C(N)=O)c2c(OCC(=O)O)cccc2n1Cc1ccccc1 | Daboia russelii venom phospholipase A2 | enzyme activity, inhibitor | GA population | 0.1 µM, with: NOB substrate | reference: venom alone | remaining activity | 85.8% and 90% |
| Nc1ncnc2c([C@@H]3N[C@H](CO)[C@@H](O)[C@H]3O)c[nH]c12 | Yellow fever virus | viral replication | Vero 76, 17D | 296 µM |  | inhibition | 90.5% |
| O=C(NCCOc1cc(OCCNC(=O)OCc2cn([C@@H]3O[C@H](CO)[C@H](O[C@H]4O[C@H](CO)[C@H](O)[C@H](O)[C@H]4O)[C@H](O)[C@H]3O)nn2)cc(C(=O)O)c1)OCc1cn([C@@H]2O[C@H](CO)[C@H](O[C@H]3O[C@H](CO)[C@H](O)[C@H](O)[C@H]3O)[C@H](O)[C@H]2O)nn1 | Shiga toxin subunit B (stxB, Shigella dysenteriae, UniProt Q7BQ98) |  | Escherichia coli |  |  | Hill slope | -1.48 |
| O=C(/C=C/c1ccccc1)c1ccc(O)cc1 | rep main protease | reporter gene (Gaussia luciferase), inhibitor |  | 20 µM |  | inhibition | -2.09% |
| Cc1ccc(-c2nc(C[S+]([O-])CC(=O)N3CCN(c4ccc(Cl)cc4)CC3)c(C)o2)cc1 (stereo not drawn) | SARS-CoV-2 | cytopathic effect | USA_WA1/2020 | round 1, 5-point |  | maximum response | 32.8% |
| O=C1NC(=O)C2(CC(C(=O)N3CCC[C@H]([C@H]4CCCN(C(=O)Cc5cccnc5)C4)C3)C2)N1 (stereo partly drawn) | rep main protease | enzyme activity, inhibitor |  | 5 µM, mean of runs |  | inhibition | 11.1% |
| C[C@@H]1O[C@@H](O[C@@H]2C(=O)c3c(O)cc(O)cc3O[C@@H]2c2ccc(O)c(O)c2)[C@H](O)[C@H](O)[C@H]1O | rep main protease | reporter gene (mKate2), inhibitor |  | 20 µM |  | inhibition | -0.476% |
| COc1ccc(-c2cn3c(n2)sc2cc(C(=O)NCCCN4CCCCCC4)ccc23)cc1 | SARS-CoV-2 | cytopathic effect, cell-based CPE | USA_WA1/2020 |  |  | AC50 | 11.2 µM |
| O=C(c1cnn2c1CCC2)N1CCCCC[C@@H](Nc2nc(-c3cccnc3)nc3c2CCC3)C1 | rep main protease | enzyme activity, inhibitor |  | 5 µM, run 2 |  | inhibition | 16.2% |

Some of these lines once more:
| SMILES | tested on | test | system | setting | scale | quantity | result |
| --- | --- | --- | --- | --- | --- | --- | --- |
| C[C@@H]1O[C@@H](O[C@@H]2C(=O)c3c(O)cc(O)cc3O[C@@H]2c2ccc(O)c(O)c2)[C@H](O)[C@H](O)[C@H]1O | rep main protease | reporter gene (mKate2), inhibitor |  | 20 µM |  | inhibition | -0.476% |
| O=C1NC(=O)C2(CC(C(=O)N3CCC[C@H]([C@H]4CCCN(C(=O)Cc5cccnc5)C4)C3)C2)N1 (stereo partly drawn) | rep main protease | enzyme activity, inhibitor |  | 5 µM, mean of runs |  | inhibition | 11.1% |
